Measured values of several laboratories.
SLC22A11: Solute carrier family 22 member 11 (SLC22A11, Homo sapiens, UniProt Q9NSA0)
Chain of UniProt Q9NSA0 (whole entry, looked up): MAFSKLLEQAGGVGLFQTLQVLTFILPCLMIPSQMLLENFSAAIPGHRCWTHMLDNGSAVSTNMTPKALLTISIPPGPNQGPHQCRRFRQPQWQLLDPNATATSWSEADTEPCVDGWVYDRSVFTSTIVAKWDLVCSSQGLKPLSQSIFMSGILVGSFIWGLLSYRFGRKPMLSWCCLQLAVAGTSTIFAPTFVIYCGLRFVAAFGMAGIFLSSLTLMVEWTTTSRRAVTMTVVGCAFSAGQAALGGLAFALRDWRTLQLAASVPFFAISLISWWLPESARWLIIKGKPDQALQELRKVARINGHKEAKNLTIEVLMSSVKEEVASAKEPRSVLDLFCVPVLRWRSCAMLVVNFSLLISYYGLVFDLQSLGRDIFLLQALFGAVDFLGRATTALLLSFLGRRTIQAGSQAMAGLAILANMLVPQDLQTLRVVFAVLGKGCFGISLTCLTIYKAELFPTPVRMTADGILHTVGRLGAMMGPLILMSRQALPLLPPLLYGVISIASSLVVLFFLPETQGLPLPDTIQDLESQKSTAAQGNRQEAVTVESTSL
SLC6A2: Sodium-dependent noradrenaline transporter (SLC6A2, Homo sapiens, UniProt P23975)
Chain of UniProt P23975 (whole entry, looked up): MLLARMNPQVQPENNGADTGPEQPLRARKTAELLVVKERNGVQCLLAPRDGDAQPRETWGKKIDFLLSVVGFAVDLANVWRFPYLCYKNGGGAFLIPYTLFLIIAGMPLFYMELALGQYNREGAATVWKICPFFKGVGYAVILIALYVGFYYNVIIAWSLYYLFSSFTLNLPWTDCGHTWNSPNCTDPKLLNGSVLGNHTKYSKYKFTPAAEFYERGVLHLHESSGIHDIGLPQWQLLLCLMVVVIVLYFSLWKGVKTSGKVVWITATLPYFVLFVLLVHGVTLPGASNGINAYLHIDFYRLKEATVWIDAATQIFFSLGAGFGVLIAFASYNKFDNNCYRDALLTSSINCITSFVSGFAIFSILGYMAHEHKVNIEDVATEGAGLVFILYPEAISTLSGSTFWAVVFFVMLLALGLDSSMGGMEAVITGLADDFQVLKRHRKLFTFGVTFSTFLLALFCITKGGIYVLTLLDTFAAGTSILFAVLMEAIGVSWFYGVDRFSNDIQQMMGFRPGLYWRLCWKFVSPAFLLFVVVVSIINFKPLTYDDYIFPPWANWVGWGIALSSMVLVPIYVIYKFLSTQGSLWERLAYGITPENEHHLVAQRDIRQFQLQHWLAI
rep papain-like protease: Replicase polyprotein 1ab, papain-like protease (rep, Porcine epidemic diarrhea virus, UniProt P0C6Y4)
NT5E: 5'-nucleotidase (NT5E, Homo sapiens, UniProt P21589)
Chain of UniProt P21589 (whole entry, looked up): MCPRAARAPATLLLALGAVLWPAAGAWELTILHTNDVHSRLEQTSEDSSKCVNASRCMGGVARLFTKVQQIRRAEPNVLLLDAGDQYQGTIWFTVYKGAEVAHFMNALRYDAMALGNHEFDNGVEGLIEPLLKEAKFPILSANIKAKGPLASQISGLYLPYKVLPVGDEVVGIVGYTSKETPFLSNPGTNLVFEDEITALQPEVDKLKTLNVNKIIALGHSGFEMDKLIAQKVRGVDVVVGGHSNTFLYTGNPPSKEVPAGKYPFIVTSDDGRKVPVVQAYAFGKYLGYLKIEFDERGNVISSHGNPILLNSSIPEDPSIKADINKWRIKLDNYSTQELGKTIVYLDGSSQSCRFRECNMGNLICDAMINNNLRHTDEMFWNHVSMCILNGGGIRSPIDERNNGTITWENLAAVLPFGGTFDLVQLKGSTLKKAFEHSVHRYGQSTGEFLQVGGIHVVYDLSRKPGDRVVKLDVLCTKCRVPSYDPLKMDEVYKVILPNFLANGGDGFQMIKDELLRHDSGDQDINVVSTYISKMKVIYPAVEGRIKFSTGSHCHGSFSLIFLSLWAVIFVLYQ
rep main protease: Replicase polyprotein 1ab, main protease (rep, Porcine epidemic diarrhea virus, UniProt P0C6Y4)
MAOB: Amine oxidase [flavin-containing] B (MAOB, Homo sapiens, UniProt P27338)
Chain of UniProt P27338 (whole entry, looked up): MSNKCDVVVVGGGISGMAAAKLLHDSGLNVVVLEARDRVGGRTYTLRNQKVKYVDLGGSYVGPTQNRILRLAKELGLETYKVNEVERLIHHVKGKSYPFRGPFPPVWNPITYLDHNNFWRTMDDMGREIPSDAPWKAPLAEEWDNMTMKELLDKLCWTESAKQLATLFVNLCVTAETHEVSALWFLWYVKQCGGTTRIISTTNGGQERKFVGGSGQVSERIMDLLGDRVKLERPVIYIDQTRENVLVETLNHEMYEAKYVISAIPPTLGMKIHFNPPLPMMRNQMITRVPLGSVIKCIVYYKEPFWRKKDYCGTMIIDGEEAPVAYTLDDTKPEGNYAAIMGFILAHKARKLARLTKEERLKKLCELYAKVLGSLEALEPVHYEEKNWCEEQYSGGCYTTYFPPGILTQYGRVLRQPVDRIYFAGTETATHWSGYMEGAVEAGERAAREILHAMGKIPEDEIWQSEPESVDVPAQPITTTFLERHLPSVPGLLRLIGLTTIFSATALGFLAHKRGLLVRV
AMY2: Pancreatic alpha-amylase (AMY2, Sus scrofa, UniProt P00690)
Chain of UniProt P00690 (whole entry, looked up): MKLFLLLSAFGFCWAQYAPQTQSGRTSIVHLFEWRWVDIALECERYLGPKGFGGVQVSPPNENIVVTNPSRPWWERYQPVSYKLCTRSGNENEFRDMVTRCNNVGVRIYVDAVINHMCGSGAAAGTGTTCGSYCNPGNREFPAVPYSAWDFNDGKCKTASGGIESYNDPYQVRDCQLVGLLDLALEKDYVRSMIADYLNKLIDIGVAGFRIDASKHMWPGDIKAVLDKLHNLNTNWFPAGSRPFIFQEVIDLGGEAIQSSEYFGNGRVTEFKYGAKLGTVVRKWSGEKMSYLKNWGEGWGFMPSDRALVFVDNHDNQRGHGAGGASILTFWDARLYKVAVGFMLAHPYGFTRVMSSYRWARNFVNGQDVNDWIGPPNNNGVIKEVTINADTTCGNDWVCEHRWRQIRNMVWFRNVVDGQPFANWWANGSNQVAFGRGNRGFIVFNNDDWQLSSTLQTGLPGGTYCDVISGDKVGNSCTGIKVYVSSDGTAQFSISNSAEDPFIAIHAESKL
PIP4K2C: Phosphatidylinositol 5-phosphate 4-kinase type-2 gamma (PIP4K2C, Homo sapiens, UniProt Q8TBX8)
Chain of UniProt Q8TBX8 (whole entry, looked up): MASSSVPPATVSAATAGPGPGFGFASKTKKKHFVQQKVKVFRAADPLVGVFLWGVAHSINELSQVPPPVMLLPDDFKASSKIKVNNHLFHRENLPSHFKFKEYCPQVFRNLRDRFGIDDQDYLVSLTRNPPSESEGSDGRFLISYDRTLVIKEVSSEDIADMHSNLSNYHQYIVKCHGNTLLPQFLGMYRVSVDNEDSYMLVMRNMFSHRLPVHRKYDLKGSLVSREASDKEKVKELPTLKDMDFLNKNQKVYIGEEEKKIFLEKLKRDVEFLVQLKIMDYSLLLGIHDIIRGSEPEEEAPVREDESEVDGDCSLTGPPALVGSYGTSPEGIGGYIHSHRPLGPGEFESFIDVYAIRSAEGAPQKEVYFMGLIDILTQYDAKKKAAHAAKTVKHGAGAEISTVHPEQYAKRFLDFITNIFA
CDK7 with cyclin H: Cyclin-dependent kinase 7, with cyclin H (CDK7, Homo sapiens, UniProt P50613)
Chain of UniProt P50613 (whole entry, looked up): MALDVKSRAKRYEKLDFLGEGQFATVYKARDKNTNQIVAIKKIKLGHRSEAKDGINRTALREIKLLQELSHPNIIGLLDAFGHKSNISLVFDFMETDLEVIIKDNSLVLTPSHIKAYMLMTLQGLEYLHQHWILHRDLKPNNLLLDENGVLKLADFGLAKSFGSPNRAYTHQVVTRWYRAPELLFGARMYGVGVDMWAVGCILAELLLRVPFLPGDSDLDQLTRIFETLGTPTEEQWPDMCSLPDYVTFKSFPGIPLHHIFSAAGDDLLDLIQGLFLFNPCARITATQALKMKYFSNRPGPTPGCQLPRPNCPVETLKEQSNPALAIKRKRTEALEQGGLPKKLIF
Chain of UniProt Q96L34 (whole entry, looked up): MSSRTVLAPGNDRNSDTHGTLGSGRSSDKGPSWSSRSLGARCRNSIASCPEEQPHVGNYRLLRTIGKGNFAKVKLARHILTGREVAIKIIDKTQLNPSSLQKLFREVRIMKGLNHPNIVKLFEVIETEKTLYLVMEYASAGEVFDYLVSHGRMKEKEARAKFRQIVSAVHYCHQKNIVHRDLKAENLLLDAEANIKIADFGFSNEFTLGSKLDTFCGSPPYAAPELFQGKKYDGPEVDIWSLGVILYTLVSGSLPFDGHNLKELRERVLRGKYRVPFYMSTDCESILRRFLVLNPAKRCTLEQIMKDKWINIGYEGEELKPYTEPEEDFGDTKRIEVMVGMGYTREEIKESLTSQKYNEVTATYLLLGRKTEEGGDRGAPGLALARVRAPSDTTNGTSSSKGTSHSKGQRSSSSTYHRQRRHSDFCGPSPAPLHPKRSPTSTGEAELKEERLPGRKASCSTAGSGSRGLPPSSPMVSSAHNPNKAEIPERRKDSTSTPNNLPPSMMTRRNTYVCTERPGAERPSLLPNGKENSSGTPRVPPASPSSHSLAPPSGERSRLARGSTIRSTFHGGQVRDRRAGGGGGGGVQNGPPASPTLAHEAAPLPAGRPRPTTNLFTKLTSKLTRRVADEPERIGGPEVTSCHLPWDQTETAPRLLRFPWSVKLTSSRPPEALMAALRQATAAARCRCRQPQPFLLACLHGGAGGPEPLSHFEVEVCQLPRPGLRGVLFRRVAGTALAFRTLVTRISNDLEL
Chain of UniProt P30518 (whole entry, looked up): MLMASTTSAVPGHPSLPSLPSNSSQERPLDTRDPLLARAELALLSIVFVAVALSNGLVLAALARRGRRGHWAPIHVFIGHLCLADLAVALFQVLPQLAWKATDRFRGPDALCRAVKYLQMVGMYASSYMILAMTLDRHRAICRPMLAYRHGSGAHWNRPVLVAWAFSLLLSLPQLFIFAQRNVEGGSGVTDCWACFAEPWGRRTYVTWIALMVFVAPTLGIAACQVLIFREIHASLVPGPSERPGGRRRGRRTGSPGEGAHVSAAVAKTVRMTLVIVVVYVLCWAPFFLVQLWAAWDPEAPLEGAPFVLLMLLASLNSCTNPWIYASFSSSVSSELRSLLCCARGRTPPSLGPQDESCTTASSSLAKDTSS
Chain of UniProt Q00535 (whole entry, looked up): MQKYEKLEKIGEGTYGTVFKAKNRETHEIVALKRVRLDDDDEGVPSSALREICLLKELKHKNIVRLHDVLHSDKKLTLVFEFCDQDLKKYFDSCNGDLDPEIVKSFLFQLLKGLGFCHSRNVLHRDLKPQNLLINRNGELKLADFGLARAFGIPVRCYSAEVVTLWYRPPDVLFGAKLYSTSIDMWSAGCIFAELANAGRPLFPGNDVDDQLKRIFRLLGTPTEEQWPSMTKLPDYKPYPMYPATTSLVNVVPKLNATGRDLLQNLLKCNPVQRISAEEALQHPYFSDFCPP

O=c1cc(-c2ccc(O)cc2)oc2cc(O)cc(O)c12  inhibition (SLC22A11; transporter uptake, inhibitor; 25 µM): 84.4%
O[C@@H]1[C@H](O)[C@@H]2C[C@@H]2[C@H]1n1cnc2c(NCCC3CC3)nc(I)nc21  inhibition (SLC6A2; ligand displacement, radioligand; 10 µM): 46%
COc1cc(CNC(=O)c2c[nH]c3ccccc23)cc(Br)c1OC  inhibition (rep papain-like protease; enzyme activity, inhibitor, FRET; 10 µM): 16.5%
Cc1cc(C(F)(F)F)c2c(N)c(C(=O)Nc3ccccc3)sc2n1  inhibition (NT5E; enzyme activity, inhibitor; 10 µM): 58%
CCc1nn(C)c2nc(-c3ccc(C(=O)O)cc3)nc(NCc3ccc(F)cc3)c12  inhibition (High affinity 3',5'-cyclic-AMP phosphodiesterase 7A (PDE7A, Homo sapiens, UniProt Q13946); enzyme activity, inhibitor, radiometric; 10 µM): 21.6%
COc1cc(CNC(=O)c2ccc(N(C)C)cc2)cc(Br)c1OC  inhibition (rep papain-like protease; enzyme activity, inhibitor, FRET; 10 µM): 17.7%
CC[C@H](C)[C@H](NC(=O)[C@H](CCC(N)=O)NC(=O)[C@H](CC(C)C)NC(=O)[C@H](CCSC)NC(=O)[C@H](CCCCN)NC(=O)[C@H](CO)NC(=O)[C@H](CO)NC(=O)[C@H](CCSC)NC(=O)[C@H](CC(C)C)NC(=O)[C@H](CC(N)=O)NC(=O)[C@@H](NC(=O)[C@@H](NC(=O)[C@H](CO)NC(=O)[C@H](CC(C)C)NC(=O)[C@H](CS)NC(=O)[C@H](CCCNC(=N)N)NC(=O)[C@H](CC(=O)O)NC(=O)[C@H](Cc1c[nH]c2ccccc12)NC(=O)[C@H](Cc1ccccc1)NC(=O)[C@H](C)NC(=O)[C@H](CCC(=O)O)NC(=O)[C@@H](N)CCCCN)C(C)C)[C@@H](C)CC)C(=O)N[C@@H](CC(N)=O)C(=O)N[C@@H](C)C(=O)O  inhibition (Mitogen-activated protein kinase 3 (MAPK3, Homo sapiens, UniProt P27361); enzyme activity, inhibitor, radiometric; 50 µM): 3%
O=C(NCc1cc(O)c(O)c(Br)c1)c1ccncc1Cl  inhibition (rep main protease; enzyme activity, inhibitor, FRET; 10 µM): 102%
COCCOCCOCCNC(=O)c1sc2nc(C)cc(C(F)(F)F)c2c1N  inhibition (NT5E; enzyme activity, inhibitor; 10 µM): 11%
COc1ccc(NC(=O)c2ccc3c(c2)C(=O)NC3=O)cc1Cl  inhibition (MAOB; enzyme activity, inhibitor; 1 µM): 32.4%
CN1CC(Oc2cnc(C#N)cc2-c2ccn3nc(NC(=O)C4CC4)cc3c2)C1  inhibition (Calcium/calmodulin-dependent protein kinase type IV (CAMK4, Homo sapiens, UniProt Q16566); enzyme activity, inhibitor; 1 µM): 11%
Cc1cccc(N(O)N=Nc2ccc(S(=O)(=O)Nc3cc(C)on3)cc2)c1  inhibition (AMY2; enzyme activity, inhibitor; 240 µg/mL): 57.9%
CCCCCC(=O)Nc1ccc(-c2ccc3ncn(Cc4ccccc4)c(=O)c3c2)cn1  inhibition (PIP4K2C; binding, competition with immobilised ligand; 0.5 µM): 74.8%
COc1ccc(NC(=O)c2ccc3c(c2)C(=O)NC3=O)cc1  inhibition (MAOB; enzyme activity, inhibitor; 1 µM): < 5%
NC/C(=C\F)COc1cccc(Cn2c(=S)[nH]c(=O)c3[nH]cnc32)c1  inhibition (Diamine oxidase [copper-containing] (AOC1, Homo sapiens, UniProt P19801); enzyme activity, inhibitor; 0.1111 µM): 0.0962%
O=c1cc(-c2ccc3c(c2)OCO3)oc2c1ccc1occc12  inhibition (CDK7 with cyclin H; enzyme activity, inhibitor, ADP detection; 10 µM): 27%
O=S(=O)(Nc1nccs1)c1ccc(N=NN(O)c2ccccc2)cc1  inhibition (AMY2; enzyme activity, inhibitor; 240 µg/mL): 63.2%
COC(=O)c1ccc(NC(=O)CSc2nc(-c3ccccc3)cc(C(F)(F)F)c2C#N)cc1  inhibition (NT5E; enzyme activity, inhibitor, HPLC; 10 µM): 90%
Cn1c(C(=O)NCc2cc(O)c(O)c(Br)c2)cc2ccccc21  inhibition (rep main protease; enzyme activity, inhibitor, FRET; 10 µM): 138%
C#Cc1cc(-c2cc(Nc3nc(N[C@@H](C)c4ccc(F)cn4)ncc3Cl)n[nH]2)ccc1C=O  inhibition (MAP/microtubule affinity-regulating kinase 4 (MARK4, Homo sapiens, UniProt Q96L34); enzyme activity, inhibitor; 0.2 µM): 8.98%
CCCCC(=O)Nc1ccc(-c2ccc3ncn(C4CC4)c(=O)c3c2)cn1  inhibition (PIP4K2C; binding, competition with immobilised ligand; 0.5 µM): 98.8%
CNc1cc(Oc2cc(C(=O)Nc3cc(N4CCN(C)CC4)cc(C(F)(F)F)c3)ccc2C)ncn1  inhibition (Serine/threonine-protein kinase Sgk3 (SGK3, Homo sapiens, UniProt Q96BR1); target engagement in cells, inhibitor, chemoproteomics; Huh-7; 1 µM): -14.5%
CCCN(O)N=Nc1ccc(S(=O)(=O)Nc2cc(C)on2)cc1  inhibition (AMY2; enzyme activity, inhibitor; 300 µg/mL): 68.4%
O=C(/C=C/c1ccc(O)cc1)CC(=O)/C=C/c1ccc(O)cc1  inhibition (CDK7 with cyclin H; enzyme activity, inhibitor, ADP detection; 10 µM): 48.9%
Cc1cccc(N(O)N=Nc2ccc(S(=O)(=O)Nc3nccs3)cc2)c1  inhibition (AMY2; enzyme activity, inhibitor; 240 µg/mL): 57.9%
O=C1C[C@@H](c2ccccc2)Oc2cc(O)cc(O)c21  inhibition (AMY2; enzyme activity, inhibitor; 50 µM, 30 min): 24.4%
CCCCc1nc(Cl)c(CO)n1Cc1ccc(-c2ccccc2-c2nn[nH]n2)cc1  inhibition (SLC22A11; transporter uptake, inhibitor; 25 µM): 50 to 90%
CCCCC(=O)Nc1ccc(-c2ccc3ncn(CCCF)c(=O)c3c2)cn1  inhibition (PIP4K2C; binding, competition with immobilised ligand; 0.5 µM): 99.2%
O=C(NCc1cc(O)c(O)c(Br)c1)c1ccc(Cl)c(F)c1  inhibition (rep papain-like protease; enzyme activity, inhibitor, FRET; 10 µM): 75.5%
CCOC(=O)[C@@]12C[C@@H]1[C@@H](n1cnc3c(NCCCCc4ccccc4)nc(I)nc31)[C@H](O)[C@@H]2O  inhibition (SLC6A2; ligand displacement, radioligand; 10 µM): 7%
CN(O)N=Nc1ccc(S(=O)(=O)Nc2nccs2)cc1  inhibition (AMY2; enzyme activity, inhibitor; 180 µg/mL): 52.6%
O=C(NCc1cc(O)c(O)c(Br)c1)c1ccc2ccccc2c1  inhibition (rep main protease; enzyme activity, inhibitor, FRET; 10 µM): 64.7%
Cc1cc(C(F)(F)F)c2c(N)c(C(=O)Nc3ccon3)sc2n1  inhibition (NT5E; enzyme activity, inhibitor; 10 µM): -18%
CCC(C(=O)NCc1cc(O)c(O)c(Br)c1)c1ccccc1 (stereo not shown)  inhibition (rep papain-like protease; enzyme activity, inhibitor, FRET; 10 µM): 75.6%
CCOC(=O)c1ccc(NC(=O)CSc2nc(C)cc(C)c2C#N)cc1  inhibition (NT5E; enzyme activity, inhibitor; 10 µM): 0%
CCN1/C(=C/C(C)=O)Sc2ccc(F)cc21  inhibition (Vasopressin V2 receptor (AVPR2, Homo sapiens, UniProt P30518); ligand displacement, radioligand; 10 µM): 3.2%
Cc1ccc(N(O)N=Nc2ccc(S(=O)(=O)Nc3cc(C)on3)cc2)cc1  inhibition (AMY2; enzyme activity, inhibitor; 20 µg/mL): 10.5%
Cc1cc(-c2ccccc2)nc2sc(C(=O)Nc3ccccc3)c(N)c12  inhibition (NT5E; enzyme activity, inhibitor; 10 µM): 3%
COc1ccc(C(=O)NCc2cc(Br)c(OC)c(OC)c2)cc1  inhibition (rep papain-like protease; enzyme activity, inhibitor, FRET; 10 µM): 98.1%
CCN(O)N=Nc1ccc(S(=O)(=O)Nc2nccs2)cc1  inhibition (AMY2; enzyme activity, inhibitor; 240 µg/mL): 52.6%
C[C@@H]1CC[C@@]2(OC1)O[C@H]1C[C@H]3[C@@H]4CC=C5C[C@@H](O)CC[C@]5(C)[C@H]4CC[C@]3(C)[C@H]1[C@@H]2C  inhibition (CDK7 with cyclin H; enzyme activity, inhibitor, ADP detection; 10 µM): 19.1%
Cc1ccc(N(O)N=Nc2ccc(S(=O)(=O)Nc3onc(C)c3C)cc2)cc1  inhibition (AMY2; enzyme activity, inhibitor; 20 µg/mL): 10.5%
CC[C@H](C)[C@H](NC(=O)[C@H](CCC(N)=O)NC(=O)[C@@H](NC(=O)[C@H](CCSC)NC(=O)[C@H](CCCCN)NC(=O)[C@H](CO)NC(=O)[C@@H](NC(=O)[C@H](CCSC)NC(=O)[C@H](CC(C)C)NC(=O)[C@H](CC(N)=O)NC(=O)[C@@H](NC(=O)[C@@H](NC(=O)[C@H](CO)NC(=O)[C@H](CC(C)C)NC(=O)[C@H](C)NC(=O)[C@H](CCCNC(=N)N)NC(=O)[C@H](CCC(=O)O)NC(=O)[C@H](Cc1ccc(O)cc1)NC(=O)[C@H](Cc1ccccc1)NC(=O)[C@H](C)NC(=O)[C@H](CC(N)=O)NC(=O)[C@@H](N)CCCCN)[C@@H](C)CC)[C@@H](C)CC)[C@@H](C)O)C(C)C)C(=O)N[C@@H](CC(N)=O)C(=O)N[C@H](C(=O)O)C(C)C  inhibition (Cyclin-dependent kinase 5, with p25 (CDK5, Homo sapiens, UniProt Q00535); enzyme activity, inhibitor, radiometric; 250 µM): 73%
